Measured values from different studies.
Lines come from different studies, so protocols differ. Values joined by “and” are separate records of one study, mostly repeats; a detail may differ. ± marks the error that the study gave.
CDK4: Cyclin-dependent kinase 4 (CDK4, Homo sapiens, UniProt P11802)
UniProt P11802, sequence (whole entry, looked up): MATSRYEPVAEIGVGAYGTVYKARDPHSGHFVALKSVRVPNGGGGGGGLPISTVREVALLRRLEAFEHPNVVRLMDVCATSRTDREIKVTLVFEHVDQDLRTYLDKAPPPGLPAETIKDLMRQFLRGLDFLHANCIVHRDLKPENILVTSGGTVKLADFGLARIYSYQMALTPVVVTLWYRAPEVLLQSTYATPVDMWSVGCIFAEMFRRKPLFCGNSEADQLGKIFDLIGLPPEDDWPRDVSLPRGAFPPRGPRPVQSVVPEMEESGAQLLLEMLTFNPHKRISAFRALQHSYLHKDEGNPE
MAOA: Amine oxidase [flavin-containing] A (MAOA, Homo sapiens, UniProt P21397)
UniProt P21397, sequence (whole entry, looked up): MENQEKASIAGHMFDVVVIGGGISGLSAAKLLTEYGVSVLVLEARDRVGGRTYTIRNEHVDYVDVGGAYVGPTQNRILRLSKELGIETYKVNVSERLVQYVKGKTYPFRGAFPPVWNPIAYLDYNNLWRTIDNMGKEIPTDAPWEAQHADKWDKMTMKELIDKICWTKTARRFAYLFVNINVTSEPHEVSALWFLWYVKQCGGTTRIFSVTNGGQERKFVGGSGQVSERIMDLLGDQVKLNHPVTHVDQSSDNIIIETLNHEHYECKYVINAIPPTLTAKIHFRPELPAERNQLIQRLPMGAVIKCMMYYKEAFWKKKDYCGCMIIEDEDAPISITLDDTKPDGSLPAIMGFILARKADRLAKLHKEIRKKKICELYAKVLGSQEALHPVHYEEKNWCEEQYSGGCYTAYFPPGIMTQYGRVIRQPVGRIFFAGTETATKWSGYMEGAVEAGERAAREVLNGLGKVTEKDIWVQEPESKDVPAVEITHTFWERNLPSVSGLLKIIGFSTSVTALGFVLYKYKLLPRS
SIRT5: NAD-dependent protein deacylase sirtuin-5, mitochondrial (SIRT5, Homo sapiens, UniProt Q9NXA8)
UniProt Q9NXA8, sequence (whole entry, looked up): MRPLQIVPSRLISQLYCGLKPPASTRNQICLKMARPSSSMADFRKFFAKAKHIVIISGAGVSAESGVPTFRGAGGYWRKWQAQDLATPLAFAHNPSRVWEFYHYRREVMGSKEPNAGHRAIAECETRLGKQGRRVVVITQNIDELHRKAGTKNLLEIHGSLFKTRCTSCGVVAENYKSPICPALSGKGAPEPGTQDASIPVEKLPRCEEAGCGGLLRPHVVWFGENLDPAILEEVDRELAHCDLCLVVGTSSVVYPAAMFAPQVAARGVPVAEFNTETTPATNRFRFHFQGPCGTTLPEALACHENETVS
VKORC1: Vitamin K epoxide reductase complex subunit 1 (VKORC1, Homo sapiens, UniProt Q9BQB6)
UniProt Q9BQB6, sequence (whole entry, looked up): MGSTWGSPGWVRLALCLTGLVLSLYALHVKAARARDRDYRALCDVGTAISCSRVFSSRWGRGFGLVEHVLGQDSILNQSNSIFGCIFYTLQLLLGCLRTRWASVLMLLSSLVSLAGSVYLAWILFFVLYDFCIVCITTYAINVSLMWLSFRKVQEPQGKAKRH
DDR2: Discoidin domain-containing receptor 2 (DDR2, Homo sapiens, UniProt Q16832)
UniProt Q16832, sequence (whole entry, looked up): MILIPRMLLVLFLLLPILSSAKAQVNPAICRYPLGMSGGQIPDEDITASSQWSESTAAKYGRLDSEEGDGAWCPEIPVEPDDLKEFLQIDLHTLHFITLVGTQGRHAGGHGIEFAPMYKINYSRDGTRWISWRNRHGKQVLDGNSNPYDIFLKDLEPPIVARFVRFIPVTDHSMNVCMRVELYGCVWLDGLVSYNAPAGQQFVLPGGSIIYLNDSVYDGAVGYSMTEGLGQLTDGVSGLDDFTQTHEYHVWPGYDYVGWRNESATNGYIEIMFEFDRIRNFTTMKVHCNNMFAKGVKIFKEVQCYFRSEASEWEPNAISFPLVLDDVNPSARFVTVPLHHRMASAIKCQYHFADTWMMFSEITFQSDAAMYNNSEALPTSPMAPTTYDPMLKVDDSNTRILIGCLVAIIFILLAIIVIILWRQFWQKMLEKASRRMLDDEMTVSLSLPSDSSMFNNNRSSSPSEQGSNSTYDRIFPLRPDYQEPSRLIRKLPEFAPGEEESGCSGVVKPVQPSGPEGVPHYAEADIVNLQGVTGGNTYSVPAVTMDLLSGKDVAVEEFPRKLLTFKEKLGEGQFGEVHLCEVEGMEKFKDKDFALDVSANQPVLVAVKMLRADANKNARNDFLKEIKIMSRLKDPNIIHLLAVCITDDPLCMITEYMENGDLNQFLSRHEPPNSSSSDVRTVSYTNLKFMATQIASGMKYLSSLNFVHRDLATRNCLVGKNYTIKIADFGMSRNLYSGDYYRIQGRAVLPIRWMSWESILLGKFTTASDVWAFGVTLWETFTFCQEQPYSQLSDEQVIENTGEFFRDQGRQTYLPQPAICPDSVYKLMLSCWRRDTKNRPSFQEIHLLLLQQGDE
HDAC11: Histone deacetylase 11 (HDAC11, Homo sapiens, UniProt Q96DB2)
UniProt Q96DB2, sequence (whole entry, looked up): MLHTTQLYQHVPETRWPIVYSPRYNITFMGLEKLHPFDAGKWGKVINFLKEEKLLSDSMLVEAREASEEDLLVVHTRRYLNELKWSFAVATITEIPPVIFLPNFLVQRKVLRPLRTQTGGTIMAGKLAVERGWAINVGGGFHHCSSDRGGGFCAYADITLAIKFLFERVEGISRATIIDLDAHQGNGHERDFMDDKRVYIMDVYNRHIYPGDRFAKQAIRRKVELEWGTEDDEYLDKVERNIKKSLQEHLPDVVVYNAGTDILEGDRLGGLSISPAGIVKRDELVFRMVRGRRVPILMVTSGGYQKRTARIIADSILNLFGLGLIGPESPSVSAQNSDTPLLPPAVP
UniProt P56524, sequence (whole entry, looked up): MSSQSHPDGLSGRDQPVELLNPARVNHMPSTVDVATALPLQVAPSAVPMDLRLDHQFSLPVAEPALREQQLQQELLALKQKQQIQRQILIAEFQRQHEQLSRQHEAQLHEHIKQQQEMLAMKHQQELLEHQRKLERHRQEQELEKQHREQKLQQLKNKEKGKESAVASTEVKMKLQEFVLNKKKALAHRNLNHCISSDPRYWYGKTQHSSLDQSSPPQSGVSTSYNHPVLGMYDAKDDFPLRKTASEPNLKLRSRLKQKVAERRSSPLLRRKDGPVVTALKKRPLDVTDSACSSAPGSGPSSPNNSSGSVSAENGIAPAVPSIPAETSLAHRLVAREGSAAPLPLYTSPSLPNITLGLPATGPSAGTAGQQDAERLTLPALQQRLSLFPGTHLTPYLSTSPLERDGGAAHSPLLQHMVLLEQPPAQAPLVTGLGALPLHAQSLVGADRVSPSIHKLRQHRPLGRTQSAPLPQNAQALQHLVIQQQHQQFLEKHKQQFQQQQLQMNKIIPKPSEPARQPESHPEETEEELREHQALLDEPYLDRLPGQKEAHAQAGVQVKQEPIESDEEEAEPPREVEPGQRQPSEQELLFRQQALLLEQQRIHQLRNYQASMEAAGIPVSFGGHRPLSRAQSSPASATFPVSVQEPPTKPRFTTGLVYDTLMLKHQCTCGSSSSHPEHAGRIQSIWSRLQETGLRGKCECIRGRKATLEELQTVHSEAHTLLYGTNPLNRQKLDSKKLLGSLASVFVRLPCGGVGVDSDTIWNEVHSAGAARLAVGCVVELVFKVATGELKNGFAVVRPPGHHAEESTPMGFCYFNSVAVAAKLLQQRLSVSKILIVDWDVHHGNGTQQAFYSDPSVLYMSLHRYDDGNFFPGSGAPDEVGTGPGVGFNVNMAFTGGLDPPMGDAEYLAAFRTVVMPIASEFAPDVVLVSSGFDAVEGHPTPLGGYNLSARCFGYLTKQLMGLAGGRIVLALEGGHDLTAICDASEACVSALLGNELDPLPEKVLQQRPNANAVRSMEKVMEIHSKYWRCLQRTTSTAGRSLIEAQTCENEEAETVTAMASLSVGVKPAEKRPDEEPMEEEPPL
UniProt P50613, sequence (whole entry, looked up): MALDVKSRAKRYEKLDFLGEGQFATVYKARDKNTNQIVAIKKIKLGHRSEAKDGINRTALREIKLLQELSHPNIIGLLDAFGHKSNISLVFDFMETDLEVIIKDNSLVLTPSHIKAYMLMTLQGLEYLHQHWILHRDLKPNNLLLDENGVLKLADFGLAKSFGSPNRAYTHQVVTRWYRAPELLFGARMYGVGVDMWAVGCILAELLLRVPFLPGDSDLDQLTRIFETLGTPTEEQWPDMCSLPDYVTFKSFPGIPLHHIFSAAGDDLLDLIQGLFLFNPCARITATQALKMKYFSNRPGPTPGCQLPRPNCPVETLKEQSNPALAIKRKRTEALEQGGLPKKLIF
UniProt Q9P0L2, sequence (whole entry, looked up): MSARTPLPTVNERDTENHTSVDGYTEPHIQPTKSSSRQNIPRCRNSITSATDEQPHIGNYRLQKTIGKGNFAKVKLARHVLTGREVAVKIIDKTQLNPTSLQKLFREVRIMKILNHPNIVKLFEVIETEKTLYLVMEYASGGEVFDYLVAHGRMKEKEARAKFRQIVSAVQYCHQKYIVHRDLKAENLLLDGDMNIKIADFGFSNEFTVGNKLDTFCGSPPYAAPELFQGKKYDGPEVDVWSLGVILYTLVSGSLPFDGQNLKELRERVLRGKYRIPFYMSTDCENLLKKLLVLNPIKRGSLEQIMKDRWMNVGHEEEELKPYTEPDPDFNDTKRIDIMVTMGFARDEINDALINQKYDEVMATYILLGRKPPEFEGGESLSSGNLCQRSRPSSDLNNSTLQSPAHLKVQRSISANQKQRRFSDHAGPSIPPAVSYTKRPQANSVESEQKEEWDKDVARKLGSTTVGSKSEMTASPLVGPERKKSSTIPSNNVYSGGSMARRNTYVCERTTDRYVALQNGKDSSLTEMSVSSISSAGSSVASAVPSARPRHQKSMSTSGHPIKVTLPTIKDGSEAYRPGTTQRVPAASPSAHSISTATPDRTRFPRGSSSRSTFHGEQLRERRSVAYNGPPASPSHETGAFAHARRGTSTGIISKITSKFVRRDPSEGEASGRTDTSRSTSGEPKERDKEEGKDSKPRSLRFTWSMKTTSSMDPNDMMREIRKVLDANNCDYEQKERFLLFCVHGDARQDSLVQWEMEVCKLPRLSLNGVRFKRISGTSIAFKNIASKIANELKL
UniProt Q13148, sequence (102-269, looked up): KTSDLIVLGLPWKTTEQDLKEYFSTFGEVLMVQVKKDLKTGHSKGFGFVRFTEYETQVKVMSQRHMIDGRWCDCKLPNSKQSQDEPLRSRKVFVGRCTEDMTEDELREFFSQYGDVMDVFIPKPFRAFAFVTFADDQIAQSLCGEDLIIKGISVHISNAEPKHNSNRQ

Structure (SMILES) | target | test | conditions | IC50
COC(=O)CCCCCCNC(=O)c1ccc(Nc2ncc(F)c(-c3cc(F)c4nc(C)n(C(C)C)c4c3)n2)cc1 | CDK4 | – | – | 0.0028 µM
CC(C)c1ccc(/C=C/C(=O)c2ccc(F)cc2)cc1 | MAOA | enzyme activity, inhibitor | – | 12.4 µM
C/C1=C\CC/C(C)=C/CC(C)(C)/C=C/C1 | TRPV4 (Homo sapiens, UniProt Q9HBA0) | ion current, patch clamp | – | 18 µM
Fc1ccc2nc(NCCCN[C@@H]3CCNc4c(Cl)cc(Cl)cc43)[nH]c2n1 | MARS2 (Homo sapiens, UniProt Q96GW9) | enzyme activity, inhibitor | – | < 0.013 µM
COC(=O)CCCCNC(=O)c1ccc(Nc2ncc(F)c(-c3cc(F)c4nc(C)n(C(C)C)c4c3)n2)cc1 | CDK4 | – | – | 0.009 µM
O=C(NC1CCC1)[C@H](Cc1c[nH]c2ccccc12)NC(=O)[C@H](CCCCNC(=S)NCCc1cc(O)n[nH]1)NS(=O)(=O)c1cccc(F)c1 | SIRT5 | enzyme activity, inhibitor | – | 32 ± 1 µM
CC1CCCN(C(=O)Cn2ncc3cccn3c2=O)C1 (stereo not shown) | VKORC1 | carboxylation, inhibitor, cell-based | – | 22.5 µM
CC(=O)N[C@@H](CC(C)C)C(=O)N[C@H](C(=O)N[C@@H](Cc1ccccc1)C(=O)N[C@]1(C)CCCCCCC=CCCC[C@@](C)(C(=O)N[C@@H](CO)C(N)=O)NC(=O)[C@H](CC(C)C)NC(=O)[C@H](CCC(N)=O)NC(=O)[C@H](C)NC(=O)[C@H](Cc2c[nH]c3ccccc23)NC(=O)[C@H](Cc2ccc(O)cc2)NC(=O)[C@H](CCC(=O)O)NC1=O)[C@@H](C)O | MDM2 (Homo sapiens, UniProt Q00987) | ligand displacement, FP | – | 0.042 µM
COC(=O)CCCCCCC(=O)Nc1ccc(Nc2ncc(F)c(-c3cc(F)c4nc(C)n(C(C)C)c4c3)n2)cn1 | CDK4 | – | – | 0.0028 µM
O=C(CN1CN(c2ccccc2F)C2(CCN(C(=O)c3cnc4[nH]ncc4c3)CC2)C1=O)NCC(F)(F)F | DDR2 | ligand displacement | – | 132 µM
CC[C@H]1CN([C@@H](CC)c2ccc(C(F)(F)F)cc2)[C@H](CC)CN1c1nc(=O)n(C)c2ccc(C#N)nc12 | DGKA (Homo sapiens, UniProt P23743) | enzyme activity, inhibitor, ADP detection | – | 0.0003 µM
Cc1nc2c(F)cc(-c3nc(Nc4ccc(NC(=O)CCCCC(=O)NO)cc4)ncc3F)cc2n1C(C)C | CDK4 | – | – | 0.0012 µM
Cc1nn(-c2cccc(N)c2)c(=O)c2cnc(Nc3ccc(N4CCNCC4)cc3)nc12 | RPS6KA3 (Homo sapiens, UniProt P51812) | enzyme activity, inhibitor | – | 1.49 µM
Cc1cc(C)c(S(=O)(=O)N(CC(=O)O)c2ccc(Nc3ccnc(N4CCCC4)n3)cc2)c(C)c1 | ATR (Homo sapiens, UniProt Q13535) | enzyme activity, inhibitor | – | > 100 µM
Cc1cc(O)c2c(c1)C(=O)c1c(O)c(O)cc(O)c1C2=O | MAOA | enzyme activity, inhibitor | – | 20.8 µM and ~20 µM
O=C1CCC(N2C(=O)c3ccc(N4CCC(C(=O)N5CCC(CCN6CCC(CNC(=O)c7cccc(-c8noc(C(F)(F)F)n8)c7)(c7nc(-c8ccccc8)cs7)CC6)CC5)CC4)cc3C2=O)C(=O)N1 (stereo not shown) | HDAC4 (Homo sapiens, UniProt P56524) | – | – | > 10 µM

Structure (SMILES) | target | test | conditions | IC50
O=c1cc(-c2ccc(O)cc2)oc2c1ccc1occc12 | Cyclin-dependent kinase 7, with cyclin H (CDK7, Homo sapiens, UniProt P50613) | enzyme activity, inhibitor, ADP detection | – | 1.28 µM
O=C(CN1CN(c2ccccc2)C2(CCN(C(=O)c3ccc4[nH]nnc4c3)CC2)C1=O)NCC(F)(F)F | DDR2 | ligand displacement | – | 65.8 µM
C=CC[C@@H]1NC(=O)[C@H](CCSC)NC(=O)CCSCc2cccc(n2)CSCCNC(=O)[C@H](CCCCCC(=O)N(O)CCCCCC)NC1=O | HDAC11 | enzyme activity, inhibitor, fluorescence | – | 0.66 µM
Cc1cc(NC2CCN(C)CC2)ccc1-c1cc2c(N3CCC[C@H](C(=O)NCc4ccc(OC(F)(F)F)cc4)C3)ncnc2[nH]1 | MARK1 (Homo sapiens, UniProt Q9P0L2) | enzyme activity, inhibitor, ADP detection | – | > 8 µM
COC(=O)CCCCNC(=O)Cc1ccc(Nc2ncc(F)c(-c3cc(F)c4nc(C)n(C(C)C)c4c3)n2)cc1 | CDK4 | – | – | 0.0016 µM
N=C(N)NCCC[C@H](NC(=O)[C@H](CCCCNC(=S)NCCC(=O)O)NS(=O)(=O)c1cccc(F)c1)C(=O)NC1CCC1 | SIRT5 | inhibitor, fluorogenic | 0 h preincubation, non-tagged enzyme 150 nM, with: NAD+ 500 µM | 0.074 ± 0.005 µM
O=C(O)Cc1cc2c(cc1C(=O)c1ccc(Cl)cc1Cl)OCO2 | Gria2 (Rattus norvegicus, UniProt P19491) | ion current, patch clamp | – | 3.73 µM
O=C(NCC(F)c1ccc(Cl)cc1Cl)c1cc(Cl)nnc1Oc1cccc(C2CC2)c1 (stereo not shown) | serine palmitoyltransferase (Botrytis cinerea, UniProt A0A384JAG3+A0A384JQT2) | – | – | 0.014 ± 0.003 µM
O=C(O)c1cc(C(=O)CC(=O)c2cc(C(=O)O)c(O)c3ccccc23)c2ccccc2c1O | Trex1 (Mus musculus, UniProt Q91XB0) | exonuclease activity, inhibitor | with: dsDNA substrate | 26.1 ± 2.59 µM
O=C1Nc2c(Br)cccc2/C1=C1/Nc2ccccc2C1=NO | EPHA4 (Homo sapiens, UniProt P54764) | – | – | > 10 µM
Sc1nc[nH]n1 | TAR DNA-binding protein 43, residues 102-269 (TARDBP, Homo sapiens, UniProt Q13148) | protein-RNA binding, inhibitor, fluorescence polarization | 40 nM protein, with: 10 nM RNA | 7.69 ± 2.18 µM
O=C(CCc1ccc(CNC(C(=O)OC2CCCC2)C2CCCCC2)cn1)NO (stereo not shown) | HDAC11 | enzyme activity, inhibitor | – | 0.977 µM
O=C(Cn1ncc2cccn2c1=O)N1CCOCC1 | VKORC1 | carboxylation, inhibitor, cell-based | – | 91.6 µM
O=C(CN1CN(c2cccc(C(F)(F)F)c2)C2(CCN(C(=O)c3cnc4[nH]ncc4c3)CC2)C1=O)NCC(F)(F)F | DDR2 | ligand displacement | – | 13.3 µM
CCN(CC)CC(=O)Nc1cccc(-n2cc(-c3ccc4ccc(-c5cn(-c6cccc(NC(=O)CN(CC)CC)c6)nn5)cc4c3)nn2)c1 | Cyclin-dependent kinase 4, with cyclin D1 (CDK4, Homo sapiens, UniProt P11802) | – | – | > 10 µM

Repeated from above:
Structure (SMILES) | target | test | conditions | IC50
Cc1nn(-c2cccc(N)c2)c(=O)c2cnc(Nc3ccc(N4CCNCC4)cc3)nc12 | RPS6KA3 (Homo sapiens, UniProt P51812) | enzyme activity, inhibitor | – | 1.49 µM
Cc1cc(C)c(S(=O)(=O)N(CC(=O)O)c2ccc(Nc3ccnc(N4CCCC4)n3)cc2)c(C)c1 | ATR (Homo sapiens, UniProt Q13535) | enzyme activity, inhibitor | – | > 100 µM
